Experimental data from different studies.
± marks the error that the study gave.
mrcB: Penicillin-binding protein 1B (mrcB, Escherichia coli K-12, UniProt P02919)
Sequence of UniProt P02919 (whole entry, looked up): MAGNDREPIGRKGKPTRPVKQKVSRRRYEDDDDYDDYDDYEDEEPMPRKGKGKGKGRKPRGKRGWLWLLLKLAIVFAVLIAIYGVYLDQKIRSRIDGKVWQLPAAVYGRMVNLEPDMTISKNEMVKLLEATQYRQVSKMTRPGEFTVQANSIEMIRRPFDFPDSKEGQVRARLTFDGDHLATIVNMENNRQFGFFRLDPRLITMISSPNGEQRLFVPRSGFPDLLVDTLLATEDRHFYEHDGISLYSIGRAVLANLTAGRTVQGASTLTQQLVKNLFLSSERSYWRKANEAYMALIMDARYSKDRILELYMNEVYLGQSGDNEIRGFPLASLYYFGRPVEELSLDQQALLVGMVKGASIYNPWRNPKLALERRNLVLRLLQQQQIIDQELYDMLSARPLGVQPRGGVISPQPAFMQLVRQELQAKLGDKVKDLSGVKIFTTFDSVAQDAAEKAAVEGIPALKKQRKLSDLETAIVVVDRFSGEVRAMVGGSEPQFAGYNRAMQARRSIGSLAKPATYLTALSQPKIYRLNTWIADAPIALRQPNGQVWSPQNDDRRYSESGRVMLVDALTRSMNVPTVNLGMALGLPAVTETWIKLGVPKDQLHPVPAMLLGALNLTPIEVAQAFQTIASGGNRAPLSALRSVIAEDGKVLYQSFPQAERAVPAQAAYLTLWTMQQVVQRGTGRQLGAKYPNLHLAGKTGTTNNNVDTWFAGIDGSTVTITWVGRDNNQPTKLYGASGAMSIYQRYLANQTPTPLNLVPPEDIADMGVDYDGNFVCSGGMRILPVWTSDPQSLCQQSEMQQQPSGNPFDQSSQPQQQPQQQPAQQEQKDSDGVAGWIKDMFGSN
ACE: Angiotensin-converting enzyme (ACE, Homo sapiens, UniProt P12821)
Sequence of UniProt P12821 (whole entry, looked up): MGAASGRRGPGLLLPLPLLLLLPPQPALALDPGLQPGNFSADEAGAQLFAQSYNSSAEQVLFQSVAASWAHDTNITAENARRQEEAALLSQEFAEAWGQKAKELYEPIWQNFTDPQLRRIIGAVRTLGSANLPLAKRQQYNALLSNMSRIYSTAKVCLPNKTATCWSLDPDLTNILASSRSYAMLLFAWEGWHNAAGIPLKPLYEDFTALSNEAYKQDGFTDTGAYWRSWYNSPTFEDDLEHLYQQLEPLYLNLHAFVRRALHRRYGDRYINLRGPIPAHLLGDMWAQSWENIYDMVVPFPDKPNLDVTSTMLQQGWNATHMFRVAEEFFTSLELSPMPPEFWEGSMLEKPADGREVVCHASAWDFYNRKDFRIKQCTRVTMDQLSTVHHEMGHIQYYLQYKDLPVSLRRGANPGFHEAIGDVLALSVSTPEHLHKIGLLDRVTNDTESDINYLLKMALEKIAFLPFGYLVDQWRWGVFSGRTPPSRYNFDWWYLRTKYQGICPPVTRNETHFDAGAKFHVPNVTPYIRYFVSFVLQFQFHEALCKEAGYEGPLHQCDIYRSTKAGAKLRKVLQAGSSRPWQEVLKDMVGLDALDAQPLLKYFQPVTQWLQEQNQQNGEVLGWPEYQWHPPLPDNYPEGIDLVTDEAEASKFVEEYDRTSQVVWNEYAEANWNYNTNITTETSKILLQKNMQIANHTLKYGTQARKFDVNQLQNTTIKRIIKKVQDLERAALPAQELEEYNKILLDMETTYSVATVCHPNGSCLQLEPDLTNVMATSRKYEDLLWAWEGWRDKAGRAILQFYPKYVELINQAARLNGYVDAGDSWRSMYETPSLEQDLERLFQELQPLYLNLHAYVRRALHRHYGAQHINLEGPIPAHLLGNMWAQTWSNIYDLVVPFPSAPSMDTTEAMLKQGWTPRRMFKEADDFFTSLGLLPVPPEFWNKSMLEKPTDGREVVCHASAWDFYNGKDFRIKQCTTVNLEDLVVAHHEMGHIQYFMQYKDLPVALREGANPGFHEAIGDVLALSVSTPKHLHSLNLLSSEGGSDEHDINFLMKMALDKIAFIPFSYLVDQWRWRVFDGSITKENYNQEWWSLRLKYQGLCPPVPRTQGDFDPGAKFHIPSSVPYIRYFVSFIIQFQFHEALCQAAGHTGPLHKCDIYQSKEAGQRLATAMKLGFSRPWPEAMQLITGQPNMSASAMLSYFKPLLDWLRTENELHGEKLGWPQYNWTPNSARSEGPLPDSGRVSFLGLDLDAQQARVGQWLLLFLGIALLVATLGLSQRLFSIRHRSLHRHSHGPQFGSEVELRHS
CDK6 with cyclin D3: Cyclin-dependent kinase 6, with cyclin D3 (CDK6, Homo sapiens, UniProt Q00534)
Sequence of UniProt Q00534 (whole entry, looked up): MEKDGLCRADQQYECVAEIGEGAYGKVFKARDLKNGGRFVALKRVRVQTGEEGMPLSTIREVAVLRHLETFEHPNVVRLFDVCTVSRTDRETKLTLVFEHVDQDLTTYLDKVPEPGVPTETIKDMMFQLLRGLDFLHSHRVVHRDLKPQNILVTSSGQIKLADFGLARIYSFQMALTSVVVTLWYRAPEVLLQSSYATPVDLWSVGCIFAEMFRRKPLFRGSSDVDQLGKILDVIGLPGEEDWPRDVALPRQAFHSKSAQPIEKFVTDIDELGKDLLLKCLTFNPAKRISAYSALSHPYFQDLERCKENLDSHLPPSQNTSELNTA
Adhesin FmlH lectin domain: Adhesin FmlH, lectin domain (Escherichia coli, UniProt Q1RBS0)
Sequence of UniProt P15555 (whole entry, looked up): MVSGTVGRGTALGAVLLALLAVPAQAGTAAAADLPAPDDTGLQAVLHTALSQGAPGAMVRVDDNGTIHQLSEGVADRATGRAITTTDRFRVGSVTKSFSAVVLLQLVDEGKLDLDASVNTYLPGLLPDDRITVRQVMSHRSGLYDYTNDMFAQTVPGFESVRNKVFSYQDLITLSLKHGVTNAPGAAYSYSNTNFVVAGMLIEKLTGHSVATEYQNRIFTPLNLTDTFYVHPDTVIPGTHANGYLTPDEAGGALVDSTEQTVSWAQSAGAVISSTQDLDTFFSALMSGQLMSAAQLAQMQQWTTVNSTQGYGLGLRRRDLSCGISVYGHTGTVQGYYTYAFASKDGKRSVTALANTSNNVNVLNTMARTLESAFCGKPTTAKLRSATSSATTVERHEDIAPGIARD
Sequence of UniProt P45983 (whole entry, looked up): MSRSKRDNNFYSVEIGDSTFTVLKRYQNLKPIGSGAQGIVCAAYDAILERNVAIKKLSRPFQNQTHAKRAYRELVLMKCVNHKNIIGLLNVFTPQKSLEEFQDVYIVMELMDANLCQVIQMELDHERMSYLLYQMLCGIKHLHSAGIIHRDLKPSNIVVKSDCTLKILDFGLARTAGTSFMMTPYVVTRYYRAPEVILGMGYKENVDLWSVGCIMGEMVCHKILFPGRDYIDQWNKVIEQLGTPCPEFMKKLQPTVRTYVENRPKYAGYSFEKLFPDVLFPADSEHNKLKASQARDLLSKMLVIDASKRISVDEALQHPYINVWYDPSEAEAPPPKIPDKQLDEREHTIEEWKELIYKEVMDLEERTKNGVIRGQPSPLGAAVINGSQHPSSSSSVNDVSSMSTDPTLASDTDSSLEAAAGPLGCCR
Sequence of UniProt Q86VZ5 (whole entry, looked up): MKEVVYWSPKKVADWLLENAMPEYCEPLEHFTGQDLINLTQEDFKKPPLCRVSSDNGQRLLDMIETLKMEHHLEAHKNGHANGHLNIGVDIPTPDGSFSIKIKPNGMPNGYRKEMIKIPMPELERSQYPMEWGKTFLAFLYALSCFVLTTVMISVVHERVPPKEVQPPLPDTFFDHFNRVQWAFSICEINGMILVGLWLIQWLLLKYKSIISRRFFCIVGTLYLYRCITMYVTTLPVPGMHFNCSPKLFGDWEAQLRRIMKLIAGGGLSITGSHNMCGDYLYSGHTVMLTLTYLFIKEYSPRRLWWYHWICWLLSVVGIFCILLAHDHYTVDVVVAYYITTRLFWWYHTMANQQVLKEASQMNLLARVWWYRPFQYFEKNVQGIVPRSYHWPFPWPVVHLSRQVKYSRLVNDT
Sequence of UniProt P11172 (whole entry, looked up): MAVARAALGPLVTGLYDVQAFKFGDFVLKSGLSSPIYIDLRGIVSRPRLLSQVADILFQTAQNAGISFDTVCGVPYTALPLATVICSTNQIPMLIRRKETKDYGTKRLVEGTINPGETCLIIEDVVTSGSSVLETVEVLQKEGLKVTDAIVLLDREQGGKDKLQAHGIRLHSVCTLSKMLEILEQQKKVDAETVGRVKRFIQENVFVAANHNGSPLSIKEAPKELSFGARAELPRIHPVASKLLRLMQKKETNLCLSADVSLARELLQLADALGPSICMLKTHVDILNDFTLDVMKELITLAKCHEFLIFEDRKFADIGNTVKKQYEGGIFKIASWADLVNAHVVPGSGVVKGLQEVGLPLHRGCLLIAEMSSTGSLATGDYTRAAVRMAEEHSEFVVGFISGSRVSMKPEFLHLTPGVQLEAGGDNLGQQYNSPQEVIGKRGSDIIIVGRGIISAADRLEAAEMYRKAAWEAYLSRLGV
Sequence of UniProt P42680 (whole entry, looked up): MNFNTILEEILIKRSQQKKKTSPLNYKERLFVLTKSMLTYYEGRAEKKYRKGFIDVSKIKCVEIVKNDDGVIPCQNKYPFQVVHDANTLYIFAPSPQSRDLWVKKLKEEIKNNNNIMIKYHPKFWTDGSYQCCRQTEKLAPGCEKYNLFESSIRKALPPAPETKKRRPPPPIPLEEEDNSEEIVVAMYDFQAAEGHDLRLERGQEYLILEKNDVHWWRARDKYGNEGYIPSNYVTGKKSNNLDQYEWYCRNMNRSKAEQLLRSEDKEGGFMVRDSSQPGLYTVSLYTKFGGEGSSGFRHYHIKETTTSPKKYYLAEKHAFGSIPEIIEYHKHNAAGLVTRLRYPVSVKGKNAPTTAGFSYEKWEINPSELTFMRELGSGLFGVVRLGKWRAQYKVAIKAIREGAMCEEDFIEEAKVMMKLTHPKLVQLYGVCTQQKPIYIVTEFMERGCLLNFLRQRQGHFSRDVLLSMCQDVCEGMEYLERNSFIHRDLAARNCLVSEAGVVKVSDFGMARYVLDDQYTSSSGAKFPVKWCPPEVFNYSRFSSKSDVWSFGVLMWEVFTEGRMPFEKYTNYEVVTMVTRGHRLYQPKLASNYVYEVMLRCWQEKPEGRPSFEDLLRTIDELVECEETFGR

CCCCc1ccc(N2C(=O)/C(=N\NC(=N)N)c3cc(OC)ccc32)cc1 — inhibition (mrcB; enzyme activity, inhibitor, HPLC; 50 µM): 64%
CC(C)C(O)C(NC(=O)[C@H](Cc1ccc(O)cc1)NC(=O)C(Cc1ccc(O)cc1)[N+](C)(C)C)C(=O)N[C@@H](C)C(=O)O (stereo partly shown) — inhibition (ACE; enzyme activity; concentration not given): inactive
CC(C)(C)CCN1C[C@@H]2[C@@H](CNC(=O)c3cc(Cl)cc(Cl)c3)[C@@H]2C1.Cl — inhibition (Voltage-dependent L-type calcium channel subunit alpha-1F (Homo sapiens, UniProt O60840, M1129A); calcium current, whole-cell patch clamp; HEK-293T cells; 10 µM; relative to: wild type): no effect
CCCCc1ccc(N2C(=O)/C(=N\NC(=N)N)c3ccccc32)cc1 — inhibition (mrcB; enzyme activity, inhibitor, HPLC; 50 µM): 17%
CCOCn1cc(F)c(=O)n(C(=O)c2cccc(C(=O)Oc3cc(OC(=O)c4cc(OC(=O)CC)nc(OC(=O)CC)c4)c(Cl)cn3)c2)c1=O — inhibition (Uridine 5'-monophosphate synthase, OPRT domain (UMPS, Homo sapiens, UniProt P11172); 5-FU phosphorylation, inhibitor; heat-denatured SC-2 xenograft extract; concentration not given): no inhibition
COc1cc(C(=O)NC2CCC(N3CCN(CC4CCC5(CCCC5)C4)CC3)CC2)c(F)cc1Nc1ncc2c(n1)N(C1CCCC1(F)F)CC(F)(F)C(=O)N2C (stereo not shown) — inhibition (Cyclin-dependent kinase 6 (CDK6, Homo sapiens, UniProt Q00534); cell-free assay, TR-FRET; 10 µM): 4.18%
CC(C)c1ccc(C(=O)Nc2ccc(CN)cc2)c(O)c1 — inhibition (Suppressor of tumorigenicity 14 protein (ST14, Homo sapiens, UniProt Q9Y5Y6); enzyme activity, inhibitor; 10 µM): 21.2%
COc1cc(OC2CCN(C)CC2)ccc1Nc1ncc2c(n1)n(C1CCCC1)c(=O)n2C — inhibition (Mitogen-activated protein kinase 8 (MAPK8, Homo sapiens, UniProt P45983); enzyme activity, inhibitor; 1 µM): > 40%
C#CCSc1nc(Sc2nnnn2-c2ccccc2)c2nnn(Cc3ccccc3Cl)c2n1 — inhibition (CDK6 with cyclin D3; enzyme activity, inhibitor; 10 µM): < 15%
Nc1ccccc1NC(=O)c1ccc(Nc2nccc(-c3cn(C4CCCCC4)nn3)n2)cc1 — inhibition (CDK6 with cyclin D3; enzyme activity, inhibitor, TR-FRET; 5 µM): -0.89%
CCCCc1ccc(N2C(=O)/C(=N\NC(=N)N)c3cc(C)ccc32)cc1 — inhibition (mrcB; enzyme activity, inhibitor, HPLC; 50 µM): 88%
CC(C)=CCC/C(C)=C/CC/C(C)=C/CC/C(C)=C\CC1=C(C)C(=O)c2ccccc2C1=O — inhibition (IRAK4 (human); kinase activity, inhibitor, Z'-LYTE FRET; 10 µM, added: ATP 10 µM): 4%
O=C(CCCCCCOc1ccc(Nc2ncc(F)c(-c3cn(C4CCCCC4)nn3)n2)cc1)NO — inhibition (CDK6 with cyclin D3; enzyme activity, inhibitor, TR-FRET; 50 nM): 2.86%
C=CC(=O)N1C[C@H](C)N(c2nc(OC[C@@]34CCCN3C[C@H](F)C4)nc3c(F)c(-c4ccc(F)c5sc(N)c(C#N)c45)c(C(F)(F)F)cc23)C[C@H]1C — inhibition (Homeodomain-interacting protein kinase 1 (HIPK1, Homo sapiens, UniProt Q86Z02); binding, KINOMEscan; 1 µM): 86%
C=CC(C)(C)c1[nH]c2ccccc2c1C1=C(O)C(=O)C(c2c[nH]c3c(CC=C(C)C)cccc23)=C(O)C1=O — inhibition (Trypanothione synthetase (Trypanosoma brucei brucei, UniProt Q586P2); trypanothione synthetase activity; 25 µM): 31 ± 7%
CC1(C)SC(C(CCc2ccccc2)B(O)O)N[C@H]1C(=O)O (stereo partly shown) — inhibition (D-alanyl-D-alanine carboxypeptidase (Streptomyces sp., UniProt P15555); enzyme activity, inhibitor; concentration not given): no inhibition
O=C(Nc1cccnc1)c1ccccc1OCc1ccccc1 — inhibition (Phosphatidylcholine:ceramide cholinephosphotransferase 1 (Homo sapiens, UniProt Q86VZ5); enzyme activity, inhibitor; 100 µM): 35%
CC(C)Cn1cc(-c2ccnc(Nc3ccc(OCCCCCCC(=O)NO)cc3)n2)nn1 — inhibition (CDK6 with cyclin D3; enzyme activity, inhibitor, TR-FRET; 50 nM): 8.65%
c1ccc2c(c1)Nc1nc3ccccc3nc1N2 — inhibition (NADPH oxidase 2 (CYBB, Homo sapiens, UniProt P04839); enzyme activity, inhibitor; membrane preparation; 100 µM, added: NADPH 40 to 200 µM): 40 to 50%
N#Cc1ccccc1O[C@@H]1O[C@H](CO)[C@H](O)[C@H](O)[C@H]1O — inhibition (Adhesin FmlH lectin domain; binding to desialylated mucin, ELISA competition; UPEC UTI89; 100 µM): 95%
Nc1ccccc1NC(=O)c1ccc(Nc2nccc(-c3cn(C4CCCC4)nn3)n2)cc1 — inhibition (CDK6 with cyclin D3; enzyme activity, inhibitor, TR-FRET; 50 nM): 6.22%
CSCC[C@H](N)C(=O)N[C@@H](CC(C)C)C(=O)N[C@@H](Cc1ccccc1)C(=O)N[C@@H](CO)C(=O)NCC(=O)N[C@@H](CCC(N)=O)C(=O)N[C@H](C(=O)N[C@@H](CC(C)C)C(=O)O)C(C)C — inhibition (ACE; enzyme activity, inhibitor, HPLC; 1330 µg/mL): 72.2%
Nc1ccc(O[C@@H]2O[C@H](CO)[C@H](O)[C@H](O)[C@H]2O)cc1 — inhibition (Adhesin FmlH lectin domain; binding to desialylated mucin, ELISA competition; UPEC UTI89; 100 µM): 65%
CC(=O)NCC(=O)N[C@@H](CC(=O)O)C(=O)N[C@@H](Cc1ccc(O)cc1)C(=O)N[C@@H](CO)C(=O)N[C@@H](Cc1c[nH]cn1)C(=O)N[C@H]1CSSC[C@@H](C(=O)N[C@H](C(=O)N[C@@H](Cc2ccc(O)cc2)C(=O)N2CCC[C@H]2C(=O)N[C@@H](CC(=O)O)C(=O)N2CCC[C@H]2C(=O)N[C@@H](CCC(=O)O)C(=O)NCC(=O)NCC(=O)NCC(N)=O)[C@@H](C)O)NC(=O)[C@H](CCCCN)NC(=O)[C@H](Cc2c[nH]c3ccccc23)NC(=O)[C@H](Cc2c[nH]c3ccccc23)NC(=O)[C@@H]2CCCN2C(=O)[C@H](Cc2ccc(O)cc2)NC(=O)[C@H](Cc2ccc(O)cc2)NC(=O)[C@H](CCCNC(=N)N)NC(=O)[C@H](CC(C)C)NC(=O)[C@@H]2CCCN2C(=O)[C@H](CO)NC1=O — inhibition (ACE; 10 µM): 15 ± 2%
OC[C@H]1O[C@@H](Oc2ccccc2Cl)[C@H](O)[C@@H](O)[C@H]1O — inhibition (Adhesin FmlH lectin domain; binding to desialylated mucin, ELISA competition; UPEC UTI89; 100 µM): 90%
CC(C)(C)OC(=O)NCCCNC(=O)c1cc2c(=O)[nH]c3ccccc3c2s1 — inhibition (Cyclin-dependent kinase 5, with p25 (CDK5, Homo sapiens, UniProt Q00535); 50 µM, added: ATP 30 µM): 13.1%
Cc1ccccc1O[C@@H]1O[C@H](CO)[C@H](O)[C@H](O)[C@H]1O — inhibition (Adhesin FmlH lectin domain; binding to desialylated mucin, ELISA competition; UPEC UTI89; 100 µM): 87%
CN(C1COC1)C(C)(C)/C=C(\C#N)C(=O)N1CCC[C@H]1Cn1nc(-c2ccc(Oc3ccccc3)cc2F)c2c(N)ncnc21 — inhibition (Tyrosine-protein kinase Tec (TEC, Homo sapiens, UniProt P42680); 1 µM, mean): > 90%
COC(=O)c1cccc(-c2ccccc2O[C@@H]2O[C@H](CO)[C@H](O)[C@H](O)[C@H]2O)c1 — inhibition (Adhesin FmlH lectin domain; binding to desialylated mucin, ELISA competition; UPEC UTI89; 100 µM): 87%
CCCCCCCCCCN1C(=O)/C(=N\NC(N)=S)c2cc(C)ccc21 — inhibition (mrcB; enzyme activity, inhibitor, HPLC; 50 µM): 40%
O=C(Nc1cccc(C(=O)Nc2ccc(S(=O)(=O)O)c3cc(S(=O)(=O)O)cc(S(=O)(=O)O)c23)c1)Nc1cccc(C(=O)Nc2ccc(S(=O)(=O)O)c3cc(S(=O)(=O)O)cc(S(=O)(=O)O)c23)c1 — inhibition (Genome polyprotein, NS3 helicase domain (Hepatitis C virus genotype 1b, UniProt Q9WMX2); DNA binding, fluorescence polarization; 100 µM, added: Cy5-dT15 DNA): > 60%
C[C@@H](N)C1CCN(S(=O)(=O)c2cccc3cnccc23)CC1 — inhibition (Rho-associated protein kinase 2 (ROCK2, Homo sapiens, UniProt O75116); cell-free assay, competition with immobilised ligand; 10 µM): > 95%
CC(C)Cn1cc(-c2ccnc(Nc3ccc(N4CCN(CCCCCCC(=O)NO)CC4)cc3)n2)nn1 — inhibition (CDK6 with cyclin D3; enzyme activity, inhibitor, TR-FRET; 50 nM): 6.66%
OC[C@H]1O[C@@H](Oc2ccccc2-c2ccccc2)[C@H](O)[C@@H](O)[C@H]1O — inhibition (Adhesin FmlH lectin domain; binding to desialylated mucin, ELISA competition; UPEC UTI89; 100 µM): 91%

For quick reference, copied from above:
CC(=O)NCC(=O)N[C@@H](CC(=O)O)C(=O)N[C@@H](Cc1ccc(O)cc1)C(=O)N[C@@H](CO)C(=O)N[C@@H](Cc1c[nH]cn1)C(=O)N[C@H]1CSSC[C@@H](C(=O)N[C@H](C(=O)N[C@@H](Cc2ccc(O)cc2)C(=O)N2CCC[C@H]2C(=O)N[C@@H](CC(=O)O)C(=O)N2CCC[C@H]2C(=O)N[C@@H](CCC(=O)O)C(=O)NCC(=O)NCC(=O)NCC(N)=O)[C@@H](C)O)NC(=O)[C@H](CCCCN)NC(=O)[C@H](Cc2c[nH]c3ccccc23)NC(=O)[C@H](Cc2c[nH]c3ccccc23)NC(=O)[C@@H]2CCCN2C(=O)[C@H](Cc2ccc(O)cc2)NC(=O)[C@H](Cc2ccc(O)cc2)NC(=O)[C@H](CCCNC(=N)N)NC(=O)[C@H](CC(C)C)NC(=O)[C@@H]2CCCN2C(=O)[C@H](CO)NC1=O — inhibition (ACE; 10 µM): 15 ± 2%
CC(C)C(O)C(NC(=O)[C@H](Cc1ccc(O)cc1)NC(=O)C(Cc1ccc(O)cc1)[N+](C)(C)C)C(=O)N[C@@H](C)C(=O)O (stereo partly shown) — inhibition (ACE; enzyme activity; concentration not given): inactive
Nc1ccccc1NC(=O)c1ccc(Nc2nccc(-c3cn(C4CCCC4)nn3)n2)cc1 — inhibition (CDK6 with cyclin D3; enzyme activity, inhibitor, TR-FRET; 50 nM): 6.22%
CC(C)Cn1cc(-c2ccnc(Nc3ccc(OCCCCCCC(=O)NO)cc3)n2)nn1 — inhibition (CDK6 with cyclin D3; enzyme activity, inhibitor, TR-FRET; 50 nM): 8.65%
